Published values of several laboratories.
A part holds a random share of what one study measured.

Study 1
Target: Ras GTPase-activating protein-binding protein 1, full length (G3BP1, Homo sapiens, UniProt Q13283)
Chain of UniProt Q13283 (whole entry, looked up): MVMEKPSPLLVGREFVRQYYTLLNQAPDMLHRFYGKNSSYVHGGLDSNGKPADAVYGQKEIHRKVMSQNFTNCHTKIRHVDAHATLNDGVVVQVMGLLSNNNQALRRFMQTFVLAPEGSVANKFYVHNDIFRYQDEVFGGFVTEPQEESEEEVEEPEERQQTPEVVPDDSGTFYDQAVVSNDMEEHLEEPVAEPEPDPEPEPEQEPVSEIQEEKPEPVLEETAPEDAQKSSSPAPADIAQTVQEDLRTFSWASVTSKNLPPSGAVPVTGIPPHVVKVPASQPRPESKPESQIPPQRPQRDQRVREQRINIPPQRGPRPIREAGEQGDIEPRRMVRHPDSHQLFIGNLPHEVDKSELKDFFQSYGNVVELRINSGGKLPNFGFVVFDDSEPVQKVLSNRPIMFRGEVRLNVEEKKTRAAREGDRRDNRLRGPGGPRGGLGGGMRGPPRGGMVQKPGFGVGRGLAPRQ
Technique: RNA Bind-n-Seq
Form: RNA
Matrix: in vitro
Tested at: 200 nM
Notes: whole 134-nt RNA, ends assumed
Added: 150 mM LiCl
Baseline: input library
Reading: higher = stronger binding
Endpoint: log2 enrichment
All molecules: 7-deaza-guanosine replaces G
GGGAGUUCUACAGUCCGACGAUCGUCCUGUGCUACACAUCGUAUGUACCGAAUCGGAAAAAGGUUUUUUUGGAAAAAAAGGAAAGUAUUAUGUUACGCCGUUCGGAUCUGCACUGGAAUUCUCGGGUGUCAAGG: -1.78
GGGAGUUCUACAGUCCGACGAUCCUCAAGUCCUGUGCUACACAUCGUAUGUACCGAAUCGGAAAAAAAGGUGGAGGAAAGUAUUAUGUUACGCCGUUCGGAUCUGCACUUCCAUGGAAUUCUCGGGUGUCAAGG: -0.261
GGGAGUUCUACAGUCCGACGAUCCAAGUCCUGUGCUACACAUCGUAUGUACCGAAUCGGUUUGGGUUUGGGGUUUGGGGAAAGUAUUAUGUUACGCCGUUCGGAUCUGCACUUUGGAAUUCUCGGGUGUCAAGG: -1.27
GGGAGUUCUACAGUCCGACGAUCGUCCUGUGCUACACAUCGUAUGUACCGAAUCGGGGUUUUUUGGUUUUUUGGUUUUUUGGAAAGUAUUAUGUUACGCCGUUCGGAUCUGCAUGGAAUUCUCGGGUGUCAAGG: -0.91
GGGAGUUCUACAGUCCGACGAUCCAAGUCCUGUGCUACACAUCGUAUGUACCGAAUCGGUGGAAAAAAAGGUUUUUGGAAAGUAUUAUGUUACGCCGUUCGGAUCUGCACUUCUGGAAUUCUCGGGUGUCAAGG: -1.51
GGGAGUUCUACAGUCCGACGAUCCUCAAGUCCUGUGCUACACAUCGUAUGUACCGAAUCGGGAAGGGGAAGGGAAGGAAAGUAUUAUGUUACGCCGUUCGGAUCUGCACUUCCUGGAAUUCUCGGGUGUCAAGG: -0.303
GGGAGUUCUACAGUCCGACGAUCAAGUCCUGUGCUACACAUCGUAUGUACCGAAUCGGGGAAAGGGGAAAGGGAAAGGGAAAGUAUUAUGUUACGCCGUUCGGAUCUGCACUUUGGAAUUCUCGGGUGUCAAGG: 0.448
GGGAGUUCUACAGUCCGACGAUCAAGUCCUGUGCUACACAUCGUAUGUACCGAAUCAAACCCAAACCCCCAAACCCAAAAAAGUAUUAUGUUACGCCGUUCGGAUCUGCACUUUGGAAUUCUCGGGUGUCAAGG: 0.233
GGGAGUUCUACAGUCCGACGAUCAGUCCUGUGCUACACAUCGUAUGUACCGAAUCGGGUUUUUGGUUUUUGGUUUUUGGGGAAAGUAUUAUGUUACGCCGUUCGGAUCUGCACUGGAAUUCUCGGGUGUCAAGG: -0.271
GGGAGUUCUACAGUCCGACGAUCUAACUGUAGAGGAGGAUCUGAUGGAUAUGGCAGUGGACGUGGAUUUGGGGAUGGCUAUAAUGGGUAUGGAGGAGGACCUGGAGGUGGCAAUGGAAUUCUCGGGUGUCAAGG: 0.239
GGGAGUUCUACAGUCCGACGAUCACCAUGCAGGUGGGCAUCUUUGGGAACUGGGGCAAGGGGGGGAUAGGGAGGGGGGUAACACUUUGGGAACAGGUGGUCCCAGGUCGUUUCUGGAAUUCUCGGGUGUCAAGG: 0.555

Study 2
Target: Histone acetyltransferase KAT6A, both winged helices, GST fusion (KAT6A, Homo sapiens, UniProt Q92794, residues 1-181)
Technique: protein binding microarray
Form: double-stranded DNA, one strand shown
Matrix: in vitro
Tested at: not given
Notes: 8-mer, flanks averaged, mean of 2 arrays, mostly near background
Baseline: not given
Reading: higher = stronger binding
Endpoint: E-score
Target sequence (chain): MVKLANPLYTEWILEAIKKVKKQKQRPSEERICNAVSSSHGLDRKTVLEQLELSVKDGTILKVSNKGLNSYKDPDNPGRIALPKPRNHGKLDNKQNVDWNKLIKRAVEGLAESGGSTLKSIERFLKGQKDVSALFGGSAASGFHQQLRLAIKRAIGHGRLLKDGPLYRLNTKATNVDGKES
AAGTCGGG: 0.0381
GAGTTTTA: -0.033
CAGGGGGA: -0.245
CAAGCTCA: -0.113
AATTTGCC: 0.0457
CTTACAGC: -0.019
GTATGATA: -0.0107
TAATATGA: -0.0788
TCTAGGCA: -0.21
CCTATTTC: -0.128
CCTTACAG: -0.0656
CCATAACG: 0.0522
CAGGTGGG: -0.166
ATCTGCGC: 0.207
GTATAATA: 0.00308
CAGGGATA: -0.23
CCCCCGAA: -0.0713
AACCGAGC: 0.173
CAAGGGTC: -0.0081
AGGTCTCA: -0.0443
TTACCTAA: -0.198

Study 3
Target: PABPC1L2, full length, GST fusion (mouse, UniProt A0ABA7IW68)
Technique: RNAcompete
Form: RNA
Matrix: in vitro
Tested at: 20 nM
Notes: 7-mer, probes averaged, single round
Baseline: mean of 7-mers
Reading: higher = stronger binding
Endpoint: 7-mer Z-score
Residues (chain): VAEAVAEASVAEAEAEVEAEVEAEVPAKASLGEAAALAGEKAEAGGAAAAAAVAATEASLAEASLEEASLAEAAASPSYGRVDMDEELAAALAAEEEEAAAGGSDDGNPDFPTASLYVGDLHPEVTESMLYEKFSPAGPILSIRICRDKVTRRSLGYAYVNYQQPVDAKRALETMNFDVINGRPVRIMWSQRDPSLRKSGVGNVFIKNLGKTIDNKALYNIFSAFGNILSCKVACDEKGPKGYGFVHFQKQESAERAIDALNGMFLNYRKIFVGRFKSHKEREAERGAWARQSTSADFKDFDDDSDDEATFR
GCGCUGA: -0.0899
ACAACUC: -0.0464
AUAGUUC: -0.246
AGUUAAC: -0.135
AACGGCA: 0.169
GAUCUGA: -0.128
GCAGACA: 0.249
GUUGCAA: -0.124
ACAAAGA: 1.74
CGUUGGA: 0.0569
AGCACAC: 0.0279
AGUCAAU: -0.354
CCUCGAC: -0.365
UUAUACG: -0.132
GGCUGCG: 0.0696
AUACGAA: 0.195

Study 4
Target: RNA binding protein fox-1 homolog 2, RRM domain, GST-SBP tag (RBFOX2, Homo sapiens, UniProt O43251-10, residues 100-194)
Technique: RNA Bind-n-Seq
Form: RNA
Matrix: in vitro
Tested at: 365 nM
Notes: natural RNA segment, single round, ends assumed
Baseline: no-protein control
Reading: higher = stronger binding
Endpoint: RBNS enrichment (R)
Target sequence (chain): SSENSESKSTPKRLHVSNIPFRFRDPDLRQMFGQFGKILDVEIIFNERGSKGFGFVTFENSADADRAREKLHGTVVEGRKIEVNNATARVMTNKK
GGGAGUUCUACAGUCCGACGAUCACAUGCUGACUGUCCUCUCCCCUCCAGCCUUUGGCCUUGGCUUUUCUAGCCUAUUUACCUGCAGGCUGAGCCACUCUCUUCCCUUUCCCCAGCAUCACUCCCCAAGGAAGUGGAAUUCUCGGGUGCCAA: 0.376
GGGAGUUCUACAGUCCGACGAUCACUGGGUAAAGGAAACACUAACCUGUUUCCAGUCUCCAGACAAAGGUUUAAAGCUUUUCAAGAACUGGGCUAAAACUCAUCCAGUUUAUCUACAGAAGCUGAAAACAGGCUGGAAUUCUCGGGUGCCAA: 0.243
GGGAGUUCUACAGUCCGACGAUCGGCAGGAGGAUUGCUUUAGCCCUGGAGGUCGAGGCUGCAGUAAGCCAUGAUUGCGCCACUGCACUCAGCCCGGGUGACAAAGCAAGACCCUGUCUCAGAAAAAAAGAAAAUGGAAUUCUCGGGUGCCAA: 0.364
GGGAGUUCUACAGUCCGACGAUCUUAAAGUCUCUUGUGUAAGAGCCAACACAUGCCCAGCUGCGGAUGGGAGCUGUUCCUGGACAGCCUUCUACUGCCUGGGAAGUGAUGGAACAGGAACUCAGGGUGCCCUUUGGAAUUCUCGGGUGCCAA: 0.215
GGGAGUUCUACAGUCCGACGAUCAGUCUUUUUCUCACUCAAACCUUCUCUCUGUAGAAGCAGAAAAGUUGCUGAUAGCCAGGAAAGAGAGCUUUCGGCCAGGGGAGCAGAGUGGAGACUCCCAUCUUUGGGGAUGGAAUUCUCGGGUGCCAA: 0.569
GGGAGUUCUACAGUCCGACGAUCUGCUCGUCCUGUUAAUUUUCCUCAAUUUUUCUUCUUCUUCCUUCUGUCCCUCCUGCCUUCCUUCUCUUCCCAAGCCCUCCAAUCCCCAUCCCAGGCUUGCUGUGUCUCACUGGAAUUCUCGGGUGCCAA: 1.79
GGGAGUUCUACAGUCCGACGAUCACAGUGGUGGGUGGGGAGGCGAUAGGAAACACAUUCCCCAGUGUGCAUUUAACAUUCAUAGCCUACAACCACAGACGUGUCUGGGGGAGCCUGGCAAGGCGUUCCUCGUCUGGAAUUCUCGGGUGCCAA: 0.402
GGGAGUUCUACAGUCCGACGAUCCCAUCUUAAAAAGAUUUAGAGUGGAUUAACCAGGUCAUUACAUCUUAAUUUAAUAACAAGCAUUACUGUAGAGUGAUUGUGUGUAGGUAUCUAAUAGGUGUGUUUUUUUUUGGAAUUCUCGGGUGCCAA: 0.647
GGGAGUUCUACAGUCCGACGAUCUACCCACCAGGUUGUACUUAACGCAAUCAGAAGGGGUUCAUGGCAAUAUAACAGUUAAUGAACUUGGAGUUUAAAUUGUGUACAUUUUUAAAUUGUAAGAUUUUUACUGUUGGAAUUCUCGGGUGCCAA: 0.312
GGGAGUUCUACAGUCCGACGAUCCUCCAAUGUGCAUUGUGGACUCGCCAGAGUAGCCUGCAUUGAGACUCCAAGAAAACAGAAGCUAUGUGGCCUCUGAUCCCCAAACUGGCCUGGGUGGGGACAUGCCUUGAUGGAAUUCUCGGGUGCCAA: 1.51
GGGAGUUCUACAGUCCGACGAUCGGGUGCUUCUGUCUCCUGCAGACCACGCCAGGGAGUGCAGACACCACCGUCACACACGCCCCUUUUGUGUUUUGGUUCAAGUUUCUCAGAGCCCCUCAGAGCUUCUACAUUGGAAUUCUCGGGUGCCAA: 0.3
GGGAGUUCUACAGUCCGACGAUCCCCACCACCUGUCCGUCCCUGUCCCCUUUCCUGCUGGCAGGAGCCGGCUGCCUACCAGGGGCCUUCCUGUGUGGCCUGCCUUCACCCCACUCAGCUCACCUCUCCCUCCAUGGAAUUCUCGGGUGCCAA: 0.685
